Assay results gathered from unrelated publications.
Each line is one published result; not all experiments were run side by side. “And” joins repeats or separate records; there may be more than shown. ± gives the spread as reported.

CCC1CNC(CC)CN(C(C(=O)[O-])c2ccc(C(=O)[O-])cc2)C(CC)CN(CC(=O)[O-])C(CC)CN1.[Mn+2] (centres unmarked) — Mn uptake (ICP-MS; BALB/c mice, liver; intravenous, 0.05 mmol/kg, 1440 min; reference: injected dose): 3.53 ± 0.64%
CN(C)S(=O)(=O)c1ccc(S(=O)(=O)N2CCC(n3c(=O)[nH]c4ccccc43)CC2)cc1 — body weight (mouse; intraperitoneal, 6 mg/kg, 6 day; reference: day 0): 101%
CCCCN1C(=O)c2cccc3c(NCCCCCCCCN4CCOCC4)ccc(c23)C1=O — fluorescence lifetime (dichloromethane): 10.5 ns
O=C(Nc1ccon1)C12CC3CC(C1)CC(n1cnc([N+](=O)[O-])n1)(C3)C2 — translation activity (Trypanosoma cruzi; reporter mRNA translation, inhibitor, refers to: Renilla luciferase mRNA; cell-free extract; concentration not given, test 1; reference: positive over negative control): 85.4%
CNc1cc(N)c(C(N)=O)cn1 — concentration at time (Han Wistar rats, male, plasma; oral, 30 mg/kg, 1.00 h): 30.7 µM
CCn1c(C)c(Cc2cccc(OC(C)(C)C(=O)O)c2)c2ccc(C(=O)N[C@@H](C)c3cccc(C(C)(C)C)c3)cc21 — half-life (human liver microsomes): 51 min
C=CC(=O)Nc1cc(Nc2nccc(-c3cn(C)c4ccccc34)n2)c(OC)cc1N(C)CCNC — remaining compound (human, dried blood spots; 270 ng/mL, 30 d, on ice, high QC level): 50.2%
CN1CCCNC(=O)c2cccc(c2)C(=O)NCCCN(C)CCCNc2cccc3c2C(=O)c2cccc(c2C3=O)NCCC1 — body weight (mouse xenograft model; dose not given, day 6): 26 g and 29 g and 27 g and 23 g
COc1ccc2c(c1)C(C)(C)C(/C=C/C1=C(Oc3ccc(C(=O)NCCCCOc4cc(CN(Cc5ccccn5)Cc5ccccn5)cc(CN(Cc5ccccn5)Cc5ccccn5)c4)cc3)C(=C/C=C3/N(CCCCS(=O)(=O)[O-])c4ccc(OC)cc4C3(C)C)CCC1)=[N+]2CCCCS(=O)(=O)[O-].O=[N+]([O-])[O-].O=[N+]([O-])[O-].[99Tc+].[C-]#[O+].[C-]#[O+].[C-]#[O+].[Zn+2] — tissue uptake (Staphylococcus aureus; BALB/c mice, bacterial myositis, small intestine with contents; 12 h): 4.88 %ID/g
Cc1nc(N)nc2c1C(=O)N[C@@H](c1ccc(F)cc1-c1cccc(O[11CH3])n1)C2 — radioactivity uptake (ex vivo biodistribution; mouse, U87 subcutaneous xenograft, carcass; dose not given, 60 min, vehicle pretreatment baseline): 44.2 ± 3.8 %ID
Cc1cc(C(=O)N(C)CC2CCCN(CCc3ccc(F)cc3)C2)c(C)o1 (centres unmarked) — translation activity (Trypanosoma cruzi; reporter mRNA translation, inhibitor, refers to: Renilla luciferase mRNA; cell-free extract; concentration not given, test 1; reference: positive over negative control): 105%
O=C(Nc1cnccc1-c1ccc([18F])cc1)c1ccnc(NC(=O)C2CC2)c1 — SUV (mice, transgenic, GSK-3β, early-stage, pancreas; intravenous, dose not given, 120 min, added: tariquidar 15 mg/kg i.v. pre-dose): 0.38
OC1(C(F)(F)F)CCN(c2nc(Nc3ccnc(C(F)(F)F)c3)nc(-c3cccc(C(F)(F)F)n3)n2)C1 (centres unmarked) — AUC(0-t) (monkey, blood; oral, 1 mg/kg): 5630 ± 567 ng·h/mL
Cc1nn(-c2nc3c(F)cc(F)cc3s2)c(O)c1C(c1ccc(C(F)(F)F)cc1)c1c(C)nn(-c2nc3c(F)cc(F)cc3s2)c1O — plasma concentration (ICR mouse; intravenous, 5 mg/kg, 8.00 h): 782 ng/mL and 3640 ng/mL and 1130 ng/mL and 1120 ng/mL
CCCC[C@@H]1NC(=O)[C@@H](CC(C)C)NC(=O)[C@H](CCCCNC(=O)CN2CCN(CC(=O)O)CCN(CC(=O)O)CC2)NC(=O)[C@@H](CO)NC(=O)[C@H](Cc2c[nH]cn2)NC(=O)[C@@H](Cc2c[nH]c3ccccc23)NC1=O [copper-64 labelled] — tissue uptake (Balb/c mice, liver; intravenous, dose not given): 21.6 ± 0.65 %ID/g
CN1CCC[C@]1(C)/C=C/S(=O)(=O)NC(=O)Nc1c2c(cc3c1C(O)CC3)CCC2 (some centres unmarked) — Cmax at first steady-state dose (human, plasma; oral, 12.5 mg twice daily of parent drug, day 14, metabolite of dosed drug): 3200 ng/mL
CCCC[C@H](NC(=O)CCCCCCCNC(=O)CN1CCN(CC(=O)O)CCN(CC(=O)O)CC1)C(=O)N[C@H]1CC(=O)NCCCC[C@@H](C(N)=O)NC(=O)[C@H](Cc2c[nH]c3ccccc23)NC(=O)[C@H](CCCNC(=N)N)NC(=O)[C@@H](Cc2ccccc2)NC(=O)[C@H](Cc2c[nH]cn2)NC1=O [technetium-99m labelled] — tissue uptake (C57 mouse, liver; intravenous, 0.037 MBq, 4 h): 0.17 ± 0.03 %ID/g
O=S(=O)(NCc1ccncc1)c1ccc(C2CCCCC2)cc1 — swim performance (CK-p25 mouse and littermates; intraperitoneal, 0.3 mg/kg daily, 6 weeks): no effect
O=C(NS(=O)(=O)c1cccs1)c1cc2ccccc2n1Cc1ccc(Br)c2ccccc12 — C0 (Sprague-Dawley rat, male, plasma; intravenous, 2 mg/kg): 14900 ng/mL
C=C(NC(=O)c1csc(-c2nc3c(cc2O)-c2nc(cs2)C(=O)NC(C(C)O)C(=O)NC(=C(C)OC)c2nc(cs2)C(=O)NC2c4nc(cs4)C(=O)NC(COC(=O)c4c5c6c(cccc6n4O)COC(=O)C(OC4CC(C)(O)C(N(C)C)C(C)O4)C2OC5)c2nc-3cs2)n1)C(N)=O (centres unmarked) — Tmax (ICR mice, Streptococcus pneumoniae ATCC 49169 infected, immunocompromised, blood; intravenous, 2 mg/kg/day twice daily): 4.8 min

Excerpt of the above:
C=CC(=O)Nc1cc(Nc2nccc(-c3cn(C)c4ccccc34)n2)c(OC)cc1N(C)CCNC — remaining compound (human, dried blood spots; 270 ng/mL, 30 d, on ice, high QC level): 50.2%
CN1CCCNC(=O)c2cccc(c2)C(=O)NCCCN(C)CCCNc2cccc3c2C(=O)c2cccc(c2C3=O)NCCC1 — body weight (mouse xenograft model; dose not given, day 6): 26 g and 29 g and 27 g and 23 g
